Measurements from different studies.
Every numbered part comes from another study and shows a few of its results, in no order. Values joined by “and” are separate records of one study, mostly repeats; a detail may differ.
Sequence of UniProt P28566 (whole entry, looked up): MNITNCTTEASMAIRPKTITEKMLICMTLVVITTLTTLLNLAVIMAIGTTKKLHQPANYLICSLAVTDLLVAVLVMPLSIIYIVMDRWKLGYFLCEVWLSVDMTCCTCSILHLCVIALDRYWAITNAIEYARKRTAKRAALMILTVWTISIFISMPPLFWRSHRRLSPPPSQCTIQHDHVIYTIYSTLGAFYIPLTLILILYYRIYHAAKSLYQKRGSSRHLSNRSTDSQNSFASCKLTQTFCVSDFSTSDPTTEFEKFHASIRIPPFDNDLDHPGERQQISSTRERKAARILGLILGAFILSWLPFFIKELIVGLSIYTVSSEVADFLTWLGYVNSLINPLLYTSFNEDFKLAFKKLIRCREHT
Sequence of UniProt Q5BJF2 (whole entry, looked up): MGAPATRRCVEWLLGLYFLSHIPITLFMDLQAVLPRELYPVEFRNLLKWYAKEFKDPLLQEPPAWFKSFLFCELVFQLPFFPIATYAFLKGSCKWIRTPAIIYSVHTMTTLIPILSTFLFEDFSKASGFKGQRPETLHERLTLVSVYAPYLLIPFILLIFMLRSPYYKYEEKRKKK
Sequence of UniProt P28222 (whole entry, looked up): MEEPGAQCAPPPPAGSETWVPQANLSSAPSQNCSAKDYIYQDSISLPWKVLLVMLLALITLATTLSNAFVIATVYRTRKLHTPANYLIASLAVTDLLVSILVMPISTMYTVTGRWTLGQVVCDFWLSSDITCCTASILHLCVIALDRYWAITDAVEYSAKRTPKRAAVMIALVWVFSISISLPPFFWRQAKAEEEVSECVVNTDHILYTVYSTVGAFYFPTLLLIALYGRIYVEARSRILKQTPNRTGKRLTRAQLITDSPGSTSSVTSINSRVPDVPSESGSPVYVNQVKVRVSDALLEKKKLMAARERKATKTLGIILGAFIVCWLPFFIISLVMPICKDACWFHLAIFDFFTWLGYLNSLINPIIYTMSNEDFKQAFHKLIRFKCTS
Sequence of UniProt P13945 (whole entry, looked up): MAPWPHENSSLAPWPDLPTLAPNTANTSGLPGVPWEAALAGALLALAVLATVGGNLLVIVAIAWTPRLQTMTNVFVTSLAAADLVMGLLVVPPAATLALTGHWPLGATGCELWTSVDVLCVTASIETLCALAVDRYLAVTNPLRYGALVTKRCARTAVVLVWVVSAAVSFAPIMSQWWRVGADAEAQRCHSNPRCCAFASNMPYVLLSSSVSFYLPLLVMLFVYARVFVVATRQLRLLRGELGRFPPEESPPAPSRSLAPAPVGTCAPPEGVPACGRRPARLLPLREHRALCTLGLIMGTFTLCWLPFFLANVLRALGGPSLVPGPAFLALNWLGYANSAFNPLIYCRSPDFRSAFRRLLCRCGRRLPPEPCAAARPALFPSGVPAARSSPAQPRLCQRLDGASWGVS
Sequence of UniProt P21917 (whole entry, looked up): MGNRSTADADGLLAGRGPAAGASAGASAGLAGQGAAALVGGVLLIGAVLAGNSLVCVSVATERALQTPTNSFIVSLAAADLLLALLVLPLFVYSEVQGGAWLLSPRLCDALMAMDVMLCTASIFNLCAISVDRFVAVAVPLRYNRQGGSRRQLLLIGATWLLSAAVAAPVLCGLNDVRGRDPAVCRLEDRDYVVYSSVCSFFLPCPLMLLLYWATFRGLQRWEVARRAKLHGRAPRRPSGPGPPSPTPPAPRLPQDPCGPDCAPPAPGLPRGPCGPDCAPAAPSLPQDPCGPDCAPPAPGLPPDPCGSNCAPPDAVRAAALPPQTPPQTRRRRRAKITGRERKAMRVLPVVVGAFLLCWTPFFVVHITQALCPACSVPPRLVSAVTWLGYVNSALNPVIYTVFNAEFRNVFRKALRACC
Sequence of UniProt P25100 (whole entry, looked up): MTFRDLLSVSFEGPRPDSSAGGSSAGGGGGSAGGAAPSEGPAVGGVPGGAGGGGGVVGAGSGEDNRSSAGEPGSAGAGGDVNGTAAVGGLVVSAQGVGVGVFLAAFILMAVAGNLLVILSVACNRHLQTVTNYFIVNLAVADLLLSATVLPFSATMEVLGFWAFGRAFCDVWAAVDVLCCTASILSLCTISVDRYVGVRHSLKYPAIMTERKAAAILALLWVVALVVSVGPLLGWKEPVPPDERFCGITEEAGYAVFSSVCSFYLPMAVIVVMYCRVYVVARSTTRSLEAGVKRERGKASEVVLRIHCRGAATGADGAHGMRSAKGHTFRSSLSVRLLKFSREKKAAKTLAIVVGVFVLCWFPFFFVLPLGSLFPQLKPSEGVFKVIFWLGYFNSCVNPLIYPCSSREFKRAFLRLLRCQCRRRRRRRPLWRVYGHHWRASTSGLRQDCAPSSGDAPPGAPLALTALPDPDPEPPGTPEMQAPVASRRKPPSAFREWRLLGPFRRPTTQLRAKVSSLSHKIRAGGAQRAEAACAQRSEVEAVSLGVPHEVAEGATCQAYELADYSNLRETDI
Sequence of UniProt P28221 (whole entry, looked up): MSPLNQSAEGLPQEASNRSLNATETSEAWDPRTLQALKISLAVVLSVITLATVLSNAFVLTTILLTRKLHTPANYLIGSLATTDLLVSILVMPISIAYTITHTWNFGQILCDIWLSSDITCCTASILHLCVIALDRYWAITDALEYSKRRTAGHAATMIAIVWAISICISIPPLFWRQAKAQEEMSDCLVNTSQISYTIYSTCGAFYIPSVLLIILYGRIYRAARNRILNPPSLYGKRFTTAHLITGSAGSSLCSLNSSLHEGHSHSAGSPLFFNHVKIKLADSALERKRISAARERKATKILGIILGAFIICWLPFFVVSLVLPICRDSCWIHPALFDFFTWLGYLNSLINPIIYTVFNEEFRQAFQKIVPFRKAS
Sequence of UniProt P08172 (whole entry, looked up): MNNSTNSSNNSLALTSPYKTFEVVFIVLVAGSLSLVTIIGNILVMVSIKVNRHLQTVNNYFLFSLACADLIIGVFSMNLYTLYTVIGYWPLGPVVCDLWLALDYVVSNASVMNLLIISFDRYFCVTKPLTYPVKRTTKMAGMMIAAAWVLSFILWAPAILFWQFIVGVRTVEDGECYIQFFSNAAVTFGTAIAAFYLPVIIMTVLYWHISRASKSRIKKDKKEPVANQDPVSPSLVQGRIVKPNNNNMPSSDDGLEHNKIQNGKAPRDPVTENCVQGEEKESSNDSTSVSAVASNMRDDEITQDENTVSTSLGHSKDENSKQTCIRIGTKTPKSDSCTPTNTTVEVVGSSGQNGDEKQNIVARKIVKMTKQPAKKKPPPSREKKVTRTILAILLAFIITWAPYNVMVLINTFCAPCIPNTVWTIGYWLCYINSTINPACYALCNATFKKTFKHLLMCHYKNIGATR
Sequence of UniProt P25021 (whole entry, looked up): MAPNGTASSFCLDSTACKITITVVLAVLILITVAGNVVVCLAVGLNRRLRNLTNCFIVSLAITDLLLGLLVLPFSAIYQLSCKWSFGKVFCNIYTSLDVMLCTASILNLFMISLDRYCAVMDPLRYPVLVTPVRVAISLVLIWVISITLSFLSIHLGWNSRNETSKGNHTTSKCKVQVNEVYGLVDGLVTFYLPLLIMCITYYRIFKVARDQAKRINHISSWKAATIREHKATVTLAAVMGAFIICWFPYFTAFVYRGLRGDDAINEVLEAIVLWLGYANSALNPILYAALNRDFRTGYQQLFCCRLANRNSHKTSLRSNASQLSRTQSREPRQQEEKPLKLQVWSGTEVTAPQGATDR
Sequence of UniProt P35462 (whole entry, looked up): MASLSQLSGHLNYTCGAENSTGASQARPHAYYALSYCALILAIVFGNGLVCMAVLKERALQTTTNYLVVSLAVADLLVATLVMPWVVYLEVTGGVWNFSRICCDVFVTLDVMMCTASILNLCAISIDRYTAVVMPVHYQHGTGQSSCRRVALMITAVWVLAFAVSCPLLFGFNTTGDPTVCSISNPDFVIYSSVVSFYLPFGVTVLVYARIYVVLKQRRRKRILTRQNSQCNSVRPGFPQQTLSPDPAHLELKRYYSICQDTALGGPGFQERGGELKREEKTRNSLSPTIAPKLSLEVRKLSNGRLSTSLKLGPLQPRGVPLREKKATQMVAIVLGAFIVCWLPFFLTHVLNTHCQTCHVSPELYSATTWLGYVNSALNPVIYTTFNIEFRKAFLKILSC
Sequence of UniProt Q9H3N8 (whole entry, looked up): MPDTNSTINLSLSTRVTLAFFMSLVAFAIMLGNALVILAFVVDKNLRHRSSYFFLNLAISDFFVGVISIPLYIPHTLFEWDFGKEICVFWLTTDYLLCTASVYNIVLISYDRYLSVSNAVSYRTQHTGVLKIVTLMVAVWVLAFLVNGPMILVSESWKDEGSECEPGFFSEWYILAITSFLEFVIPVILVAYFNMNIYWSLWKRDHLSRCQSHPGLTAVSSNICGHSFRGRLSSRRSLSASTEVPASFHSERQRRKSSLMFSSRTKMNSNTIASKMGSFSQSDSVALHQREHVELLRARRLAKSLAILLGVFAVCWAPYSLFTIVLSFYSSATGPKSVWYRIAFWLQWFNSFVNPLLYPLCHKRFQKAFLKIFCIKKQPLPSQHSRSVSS
Sequence of UniProt P18089 (whole entry, looked up): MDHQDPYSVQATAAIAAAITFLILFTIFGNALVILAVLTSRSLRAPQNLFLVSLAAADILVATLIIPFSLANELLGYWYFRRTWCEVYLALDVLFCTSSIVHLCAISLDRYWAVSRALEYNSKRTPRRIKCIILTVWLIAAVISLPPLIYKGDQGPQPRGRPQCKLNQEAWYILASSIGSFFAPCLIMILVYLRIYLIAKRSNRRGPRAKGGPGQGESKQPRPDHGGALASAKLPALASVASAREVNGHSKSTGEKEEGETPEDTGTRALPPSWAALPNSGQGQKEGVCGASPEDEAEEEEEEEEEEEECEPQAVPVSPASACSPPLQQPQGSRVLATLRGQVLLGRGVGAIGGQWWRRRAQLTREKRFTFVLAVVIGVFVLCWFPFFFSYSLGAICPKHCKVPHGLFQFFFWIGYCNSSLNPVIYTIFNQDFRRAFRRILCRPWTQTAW

Series 1 — host: human; sample: microsomes or S9; tested at: 2 µM; time: 0.5 h
SMILES	remaining compound [%]
COc1cc(CN2CCC(NC(=O)NC3CCCCC3)CC2)cc(OC)c1OC	92.2
CCOC(=O)C1=C(n2[nH]c3nc(C)cc(COC)c3c2=N)CCC1	84
O=C1CN(C2CCCC2)C(=O)N1Cc1cc2c(cc1Br)OCO2	> 100
CCNC(=O)c1cc(S(=O)(=O)NC(C(=O)O)C(C)C)cs1 (stereo not drawn)	> 99
CCOC(=O)N1CCN(C(=O)C2CCC(CNS(=O)(=O)CC)CC2)CC1 (stereo not drawn)	70.7
COc1cc(=O)n(-c2ccccc2)cc1C(=O)N1CC(S(=O)(=O)c2nccn2C)C1	> 99
CCOc1cc(=O)n2c(c1C(=O)Nc1cc(Cl)ccc1OC)CCCC2	27.5

Series 2 — tested at: 10 µM
SMILES: COc1ccc2c(c1)O[C@H](c1ccc(OC)c(OC)c1)C[C@@H]2NC(=O)C1(c2ccc3c(c2)OC(F)(F)O3)CC1
target	effect on	method	inhibition
HTR1D (Homo sapiens, UniProt P28221)	cell-free assay	–	4.36%
CHRM2 (Homo sapiens, UniProt P08172)	cell-free assay	–	-9.38%
TMEM97 (Homo sapiens, UniProt Q5BJF2)	cell-free assay	–	85.8%
CHRM4 (Homo sapiens, UniProt P08173)	cell-free assay	–	-2.72%
HTR1B (Homo sapiens, UniProt P28222)	binding	radioligand binding	-0.84%
HTR1E (Homo sapiens, UniProt P28566)	cell-free assay	–	-16.3%
ADRA1B (Homo sapiens, UniProt P35368)	cell-free assay	–	49%
ADRA2C (Homo sapiens, UniProt P18825)	cell-free assay	–	15.8%
HRH2 (Homo sapiens, UniProt P25021)	cell-free assay	–	-6.08%
HRH3 (Homo sapiens, UniProt Q9Y5N1)	cell-free assay	–	-10.7%
ADRA1D (Homo sapiens, UniProt P25100)	cell-free assay	–	2.75%
DRD3 (Homo sapiens, UniProt P35462)	cell-free assay	–	-1.53%
HRH4 (Homo sapiens, UniProt Q9H3N8)	cell-free assay	–	-2.97%
DRD4 (Homo sapiens, UniProt P21917)	cell-free assay	–	-7.47%
ADRB3 (Homo sapiens, UniProt P13945)	cell-free assay	–	3.77%
DRD2 (Homo sapiens, UniProt P14416)	cell-free assay	–	2.62%
ADRA2B (Homo sapiens, UniProt P18089)	cell-free assay	–	37.5%

Series 3 — cell line: A-375; tested at: 100 µM; time: 18 h
Structure (SMILES)	viability [%]
NS(=O)(=O)Cc1noc2ccccc12	114
Cc1ccsc1/C=C/C1=NCCCN1C	109
CC(=O)[C@@]1(O)CC[C@H]2[C@@H]3C[C@H](C)C4=CC(=O)C=C[C@]4(C)[C@@]3(F)[C@@H](O)C[C@@]21C	68.9
N[C@@H](Cc1ccc(O)c(O)c1)C(=O)O	88.3
CC#C[C@]1(O)CC[C@H]2[C@@H]3CCC4=CC(=O)CCC4=C3[C@@H](c3ccc(N(C)C)cc3)C[C@@]21C	49.3
Cc1cc(N)c2ccccc2[n+]1CCCCCCCCCC[n+]1c(C)cc(N)c2ccccc21	40.6
C/C(O)=C(\C#N)C(=O)Nc1ccc(C(F)(F)F)cc1	74.1
CCN(CC)Cc1cc(Nc2ccnc3cc(Cl)ccc23)ccc1O	55
COC(=O)C1=C(C)NC(C)=C(C(=O)O[C@@H]2CCCN(Cc3ccccc3)C2)[C@@H]1c1cccc([N+](=O)[O-])c1 (racemic)	39.3

Series 4 — cell line: mouse MPNST tumor cells; method: high-content immunofluorescence imaging; item: nuclear SOX9; tested at: 10 µM; time: 12 h; notes: mean of 2 replicates; reference: DMSO control; reading: higher = more nuclear SOX9
SMILES	nuclear SOX9 intensity
COc1ccc(-c2cc3c(C)nc(N)nc3n([C@H]3CC[C@H](OCCO)CC3)c2=O)cn1	126 % of DMSO
COc1ccc(-c2csc(NC(=O)[C@H]3CCCCN3S(=O)(=O)c3ccc(C)cc3)n2)cc1	117 % of DMSO
CC1(C)S[C@@H]2[C@H](NC(=O)[C@H](C(=O)O)c3ccsc3)C(=O)N2[C@H]1C(=O)O	96.9 % of DMSO
O=C(/C=C/N1C[C@H]2C[C@@H]1CN2c1ccccn1)c1ccccc1O	96.9 % of DMSO
Nc1ncnc2c1c(-c1cnc3[nH]ccc3c1)nn2C1CCCC1	101 % of DMSO
CC1=Nc2ccc(Cl)cc2S(=O)(=O)N1	109 % of DMSO and 90 % of DMSO and 99.9 % of DMSO
O=C(O)c1ccc(N2C(=O)C(=Cc3ccc(-c4ccc([N+](=O)[O-])cc4)o3)C=C2c2ccccc2)cc1	97.8 % of DMSO
O=c1oc(-c2ccc(C(F)(F)F)cc2)nn1Cc1cc(Cl)ccc1O	144 % of DMSO
NC(=O)[C@@H](CCC(F)(F)F)N(Cc1ccc(-c2ncon2)cc1F)S(=O)(=O)c1ccc(Cl)cc1	124 % of DMSO

For quick reference, copied from above (series 4):
SMILES	nuclear SOX9 intensity
COc1ccc(-c2cc3c(C)nc(N)nc3n([C@H]3CC[C@H](OCCO)CC3)c2=O)cn1	126 % of DMSO
COc1ccc(-c2csc(NC(=O)[C@H]3CCCCN3S(=O)(=O)c3ccc(C)cc3)n2)cc1	117 % of DMSO
CC1(C)S[C@@H]2[C@H](NC(=O)[C@H](C(=O)O)c3ccsc3)C(=O)N2[C@H]1C(=O)O	96.9 % of DMSO
O=C(/C=C/N1C[C@H]2C[C@@H]1CN2c1ccccn1)c1ccccc1O	96.9 % of DMSO
Nc1ncnc2c1c(-c1cnc3[nH]ccc3c1)nn2C1CCCC1	101 % of DMSO
CC1=Nc2ccc(Cl)cc2S(=O)(=O)N1	109 % of DMSO and 90 % of DMSO and 99.9 % of DMSO
O=C(O)c1ccc(N2C(=O)C(=Cc3ccc(-c4ccc([N+](=O)[O-])cc4)o3)C=C2c2ccccc2)cc1	97.8 % of DMSO
